Published values pooled from the literature.
A part holds a random share of what one study measured. Substitutions count along the parent as printed.

Sample 1
Target: Ras GTPase-activating protein-binding protein 1, full length (G3BP1, Homo sapiens, UniProt Q13283)
Chain of UniProt Q13283 (whole entry, looked up): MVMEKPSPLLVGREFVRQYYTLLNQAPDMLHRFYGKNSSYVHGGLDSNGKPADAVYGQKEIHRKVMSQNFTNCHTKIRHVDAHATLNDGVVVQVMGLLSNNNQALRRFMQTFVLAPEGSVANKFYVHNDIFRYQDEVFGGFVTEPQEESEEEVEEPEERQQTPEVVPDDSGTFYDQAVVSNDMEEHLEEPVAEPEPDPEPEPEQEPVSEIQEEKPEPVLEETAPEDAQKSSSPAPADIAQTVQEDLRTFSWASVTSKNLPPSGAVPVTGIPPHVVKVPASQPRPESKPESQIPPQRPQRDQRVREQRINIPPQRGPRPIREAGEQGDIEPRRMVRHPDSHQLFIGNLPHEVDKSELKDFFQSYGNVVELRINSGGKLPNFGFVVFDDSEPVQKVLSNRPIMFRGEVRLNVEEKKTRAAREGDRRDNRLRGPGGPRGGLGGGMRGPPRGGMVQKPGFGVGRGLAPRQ
Technique: RNA Bind-n-Seq
Molecule type: RNA
Sample: in vitro
Concentration: 200 nM
Setting: whole 134-nt RNA, ends assumed
With: 150 mM LiCl
Reference: input library
Reading: higher = stronger binding
Library: 7-deaza-guanosine replaces G
Shared flanks, not repeated: GGGAGUUCUACAGUCCGACGAUC … UGGAAUUCUCGGGUGUCAAGG
The log2 enrichment of `UCCUCAAGUCCUGUGCUACACAUCGUAUGUACCGAAUCGGAGGUGGUUUGGAAAGUAUUAUGUUACGCCGUUCGGAUCUGCACUUCCAGC` is reported as -0.875.
`GCAGGAUGUAAAAACAAAUGGAAAUGCUUCGGAUAGUGGCAGGGGUGGGGGUUGCUAAGGAAAGGGUGGGAUGGGAGUGGGUAAAGAGUU` gave a log2 enrichment of 0.0294.
`UCAAGUCCUGUGCUACACAUCGUAUGUACCGAAUCGGCCCGGCCCGGGGCCCGGAAAGUAUUAUGUUACGCCGUUCGGAUCUGCACUUCC` gave a log2 enrichment of -0.538.
The log2 enrichment of `UAACUUUAGAGGAGGAUCUGAUGGAUAUGGCAGUGGACGUGGAUUUGGGGAUGGCUGUAAUGGGUAUGGAGGAGGACCUGGAGGUGGCAA` is reported as 0.367.
`UCCUGUGCUACACAUCGUAUGUACCGAAUCGGUUUUUUGGGGUUUUUUGGUUUUUUGGGGAAAGUAUUAUGUUACGCCGUUCGGAUCUGC` gave a log2 enrichment of -0.0999.
`AGUCCUGUGCUACACAUCGUAUGUACCGAAUCGGGUUUUUUUGGGAGGGAAAAAGGGAAAGUAUUAUGUUACGCCGUUCGGAUCUGCACU` has a log2 enrichment of -0.498.

Sample 2
Target: CCNE1, cyclin fold, Cln2 fusion (human)
Technique: yeast growth competition, sequencing
Sample: yeast
Setting: weak parent motif
Reference: not given
Reading: higher = stronger binding
Starting sequence: ORC1 docking peptide (human); PRARKRLELGNLG
`PRAHKRLELGNLG [R4H]`: “normalised enrichment score” 0.659.
For `PRARARAELGNLG [K5A L7A]`, “normalised enrichment score” read 0.192.
Under “normalised enrichment score”, `PRARKRLELGNMG [L12M]` is recorded as 0.6.
`PRARKRLENGNLG [L9N]`: “normalised enrichment score” 0.284.
For `PRARKRLEWGNLG [L9W]`, “normalised enrichment score” read 0.761.
Under “normalised enrichment score”, `PRARKRFELGNLG [L7F]` is recorded as -0.013.
For `PFARKRLELGNLG [R2F]`, “normalised enrichment score” read 0.56.

Sample 3
Target: Interferon regulatory factor 5, full length, phosphomimetic (IRF5, Homo sapiens, UniProt Q13568-2, residues 1-514, K96S/S451D/S453D/S456D/S462D)
Technique: protein-binding microarray
Molecule type: double-stranded DNA, one strand shown
Sample: in vitro
Concentration: 250 nM
Setting: 60-bp whole probe
With: salmon DNA 0.4 mg/ml
Reference: random background probes
Reading: higher = stronger binding
Shared flanks, not repeated: GCCTAGCAC … GTCTTGATTCGCTTGACGCTGCTG
`GACGACCTGGGGTATCGAGACGTGCTA` has a log fluorescence of 0.178 z-score.
The log fluorescence of `GAAGGTTTCGGGTATCGGGACGTGCTA` is reported as 7.68 z-score.
For `TTAGATTTCAGTATCGATAAGTGCTAG`, the log fluorescence was 7.95 z-score.
`GACGGTGTCGACTATCGGGACGTGCTA` has a log fluorescence of 1.21 z-score.
For `TTCCAGCTGGTGACTAGCGAGTGCTAG`, the log fluorescence was -0.0447 z-score.
The log fluorescence of `TTAGGTATCCTTTTCATTTAGTGCTAG` is reported as 1.07 z-score.
`GACGGGTTCCTTATCCTGACGTGCTAG` has a log fluorescence of -0.432 z-score.
For `TCATTTTTCTTTAAAAGACTGTGCTAG`, the log fluorescence was 0.88 z-score.

Other studies, line by line
With `PhoQ, residues 284 288 289 292 302 303 NSMLDC` the fold induction was 17.6 (PhoP, residues 12 14 15 18 19 AGCRL (Escherichia coli, UniProt P23836); Sort-seq, item: YFP reporter; E. coli; PhoQ-PhoP variant library, with: 10 µM Mg2+; reference: high Mg2+ state, higher = stronger signaling).
